Results gathered from unrelated publications.
Each line is one published result; not all experiments were run side by side. “And” joins repeats or separate records; there may be more than shown. ± marks the error that the study gave.

COc1ccc([C@H]2COc3cc(O)ccc3C2)c(O)c1 — cytotoxicity (Calu-3; 50 µM): 20%
CC(C)C[C@@H](NC(=O)[C@H](N)CCCCN)C(=O)N[C@H](CC(C)C)C(=O)N[C@H](Cc1ccccc1)C(=O)N[C@H](Cc1ccccc1)C(=O)N[C@H](C)C(=O)N[C@H](CCC(=O)O)C(N)=O — viability (NGF-differentiated PC-12 neurons; 160 µM, 24 h; relative to: untreated): 98%
CCCCCCCCCC(=O)N[C@@H](Cc1c[nH]c2ccccc12)C(=O)N[C@H](CC(N)=O)C(=O)N[C@@H](CC(=O)O)C(=O)N[C@@H]1C(=O)NCC(=O)N[C@@H](CCCNC(=O)CCC(=O)N2Cc3ccccc3-c3c(nnn3CCC[C@H](NC(=O)CCCCC[N+]3=C(C=CC4=CC(=CC=C5N(C)c6ccccc6C5(C)C)CCC4)C(C)(C)c4ccccc43)C(=O)NCCCCNC(=O)CCC(=O)N3Cc4ccccc4-c4c(nnn4CCOCCOCCOCCNC(=O)CN4CCN(CC(=O)NCCNC(=O)c5cccc(O)c5O)CCN(CC(=O)NCCNC(=O)c5cccc(O)c5O)CCN(CC(=O)NCCNC(=O)c5cccc(O)c5O)CC4)-c4ccccc43)-c3ccccc32)C(=O)N[C@@H](CC(=O)O)C(=O)N[C@H](C)C(=O)N[C@@H](CC(=O)O)C(=O)NCC(=O)N[C@H](CO)C(=O)N[C@@H]([C@H](C)CC(=O)O)C(=O)N[C@@H](CC(=O)c2ccccc2N)C(=O)O[C@@H]1C — EC50 (A549; cytotoxicity, WST-1; human cells; 5 days, 5% FBS DMEM): 64 µM
O=S(=O)(c1ccc(O)cc1)c1ccc(O)cc1 — necrotic cells (HepG2 spheroids; annexin V-FITC/PI flow cytometry; 40 µM, 24 h): 7.52 ± 2.4%
CC(C)C[C@@H](N)C(=O)N[C@H](Cc1ccccc1)C(=O)N[C@H](Cc1ccccc1)C(=O)N[C@H](C)C(=O)N[C@H](CCC(=O)O)C(N)=O — viability (NGF-differentiated PC-12 neurons; 20 µM, 24 h; relative to: untreated): 75.6%
CC(C)C[C@H](NC(=O)[C@H](C)NC(=O)[C@@H](NC(=O)[C@H](CCCNC(=N)N)NC(=O)[C@H](CC(C)C)NC(=O)[C@H](Cc1c[nH]c2ccccc12)NC(=O)[C@@H]1CCCN1C(=O)[C@@H](N)CCCCN)C(C)C)C(=O)N[C@@H](CS)C(=O)N1CCC[C@H]1C(=O)NCC(=O)O — viability (A549; WST-1; 16 µM, 24 h): 93.1% and 83.7% and 77.6%
CN[C@@H]1[C@@H](O)[C@@H](O[C@@H]2[C@@H](O)[C@H](O[C@H]3O[C@H]([C@@H](C)O)[C@@H](O)[C@H](O)[C@H]3N)[C@@H](N)C[C@H]2N)OC[C@]1(C)O — 25% lethal concentration (NIH 3T3; 72 h, 10% fetal bovine serum): 212 ± 8.6 µM
COc1ccccc1-c1cccc(CN2CCCC(C(=O)NCc3ccc(F)cc3)C2)c1 (stereo not drawn) — cytotoxicity efficacy (Vero-E6; CellTiter-Glo ATP; concentration not given, 72 h, retest 8-point duplicates; relative to: DMSO 0%, hyamine -100%, more negative, more toxic): -29.9%
Cc1cc(C(C)(C)c2ccc(O)c(C)c2)ccc1O — viable cells (HepG2 spheroids, dissociated; annexin V-FITC/PI flow cytometry; 1 µM, 24 h): 72.7 ± 2.93%
O=C(O)CN1C(=O)c2cccc3cccc(c23)C1=O — maximum inhibition (human coronavirus OC43; virus-induced cell killing; MRC-5; screen): 6.33%
N.N.[Cl][Pt][Cl] — micronucleus fold increase (HepaRG; concentration not given, highest tested concentration; relative to: vehicle): 11.7 fold
CNCCN(C)c1nc(NC(C)c2ccccc2)c2ccccc2n1 (stereo not drawn) — maximum response (Vero-E6; CellTiter-Glo ATP; 72 h, second round 5-point; relative to: DMSO 0%, hyamine -100%, more negative, more toxic): -1.93%
CCN(N=O)C(N)=O — lowest effective concentration (HepaRG; micronucleus formation; 24 (unit not given)): 1020 µM
Oc1ccc(C2(c3ccc(O)cc3)c3ccccc3-c3ccccc32)cc1 — late apoptotic cells (HepG2 spheroids, dissociated; annexin V-FITC/PI flow cytometry; 0.1 µM, 24 h): 14.3 ± 2.49%
Cc1ccc2c(NC(C)c3ccccc3)nc(N3CCNCC3)nc2c1 (stereo not drawn) — maximum response (Vero-E6; CellTiter-Glo ATP; 72 h, retest 8-point duplicates; relative to: DMSO 0%, hyamine -100%, more negative, more toxic): -17.4%
CC(C)C[C@@H](NC(=O)[C@H](N)CCCCN)C(=O)N1CCC[C@@H]1C(=O)N[C@H](Cc1ccccc1)C(=O)N[C@H](Cc1ccccc1)C(=O)N[C@H](C)C(=O)N[C@H](CCC(=O)O)C(N)=O — viability (NGF-differentiated PC-12 neurons; 160 µM, 24 h; relative to: untreated): 79.3%
CCCN(CCC)CCCNC(=O)C1CCCN(Cc2nc(-c3ccc(Cl)cc3)oc2C)C1 (stereo not drawn) — maximum response (Vero-E6; CellTiter-Glo ATP; 72 h, second round 5-point; relative to: DMSO 0%, hyamine -100%, more negative, more toxic): -15.8%
CO[C@@H](C(=O)N1Cc2n[nH]c(NC(=O)c3ccc(N4CCN(C)CC4)cc3)c2C1)c1ccccc1 — maximum inhibition (human coronavirus OC43; virus-induced cell killing; MRC-5; maximum over 10 doses): 0%
CC(C)C[C@@H](NC(=O)[C@H](N)CCCCN)C(=O)N[C@H](CC(C)C)C(=O)N[C@H](Cc1ccccc1)C(N)=O — viability (NGF-differentiated PC-12 neurons; 80 µM, 24 h; relative to: untreated): 96.5%
COc1ccc2c(Sc3ccc(Cl)cc3)c(C(=O)NCCCN3CCCCC3)[nH]c2c1 — maximum response (Vero-E6; CellTiter-Glo ATP; 72 h, second round 5-point; relative to: DMSO 0%, hyamine -100%, more negative, more toxic): -2%
Cc1ccc(-c2nn3c(Cn4cnc5ccccc54)nnc3s2)cc1C — CC50 (HEp-2; cytotoxicity): 89.6 µM
COc1cccc(-c2ccc(CN3CCCC(c4nc5ccc(C)cc5c(=O)[nH]4)C3)cc2)c1 (stereo not drawn) — cytotoxicity efficacy (Vero-E6; CellTiter-Glo ATP; concentration not given, 72 h, second round 5-point; relative to: DMSO 0%, hyamine -100%, more negative, more toxic): 0%
O=S(=O)(c1ccc(-c2ccc3nccc(Nc4ccnnc4)c3c2)cc1)N1CCOCC1 — TC50 (NIH 3T3; cytotoxicity, PrestoBlue; 96 h, 2% FBS): > 20 µM
Fc1ccc2[nH]c3c(c2c1)CCCC3NCCc1ccc(Br)cc1 (stereo not drawn) — non-viable cells (A549; 50 µM, 23 h): 10.8 ± 9.6%
CC(C)C[C@@H](NC(=O)[C@H](N)CCCCN)C(=O)N1CCC[C@@H]1C(=O)N[C@H](Cc1ccccc1)C(=O)N[C@H](Cc1ccccc1)C(=O)N[C@H](C)C(N)=O — viability (NGF-differentiated PC-12 neurons; 5 µM, 24 h; relative to: untreated): 100%
Cc1cc(Nc2ccnc3ccc(-c4ccc(S(=O)(=O)N5CCOCC5)cc4)cc23)sn1 — TC50 (NIH 3T3; cytotoxicity, PrestoBlue; 96 h, 2% FBS): > 20 µM
CC(C)C[C@@H](N)C(=O)N[C@H](CC(C)C)C(=O)N[C@H](Cc1ccccc1)C(=O)N[C@H](Cc1ccccc1)C(N)=O — viability (NGF-differentiated PC-12 neurons; 80 µM, 24 h; relative to: untreated): 46.9%
CN(CC(O)c1cccc(O)c1)N=O (stereo not drawn) — micronucleus induction (TK6): negative
Cc1nc2ccccc2n1Cc1nnc2sc(-c3ccc(F)c(Cl)c3)nn12 — CC50 (HEp-2; cytotoxicity): 7.4 µM
CC(C)C[C@@H](NC(=O)[C@H](N)CCCCN)C(=O)N[C@H](CC(C)C)C(=O)N[C@H](Cc1ccccc1)C(=O)N[C@H](Cc1ccccc1)C(N)=O — viability (NGF-differentiated PC-12 neurons; 20 µM, 24 h; relative to: untreated): 99%
O=S(=O)(c1ccc(-c2ccc3nccc(Nc4ccccc4)c3c2)cc1)N1CCOCC1 — TC50 (NIH 3T3; cytotoxicity, PrestoBlue; 96 h, 2% FBS): > 20 µM
CCCCN(C)CCCNC(=O)c1ccc2nc(N3CCCCC3)sc2c1 — maximum response (Vero-E6; CellTiter-Glo ATP; 72 h, retest 8-point duplicates; relative to: DMSO 0%, hyamine -100%, more negative, more toxic): -8.01%
O=c1ccc2ccccc2o1 — chance response (NHEK; cell count; concentration not given, 24 h, PGC1alpha mitochondrial stress panel): 4.58%
CN1CCCN(S(=O)(=O)c2ccc(-c3ccc4ncc(C#N)c(Nc5ccc(OCc6ccccc6)c(Cl)c5)c4c3)cc2)CC1 — TC50 (NIH 3T3; PrestoBlue; 2% FBS medium; 96 h): 11 µM
N#C[C@@]1(n2ccc(N)nc2=O)O[C@H](CO)[C@@H](O)[C@H]1O — micronucleated cells (CHO; 130 µM, with S9): 0.21%
CC(C)C[C@@H](NC(=O)[C@H](N)CCCCN)C(=O)N[C@H](CC(C)C)C(=O)N[C@H](Cc1ccccc1)C(=O)N[C@H](Cc1ccccc1)C(=O)N[C@H](C)C(N)=O — viability (NGF-differentiated PC-12 neurons; 40 µM, 24 h; relative to: untreated): 95.6%
CCCCN1CCC(N(Cc2ccccc2)C(=O)Nc2cccnc2)CC1 — LD50 (HCC95 cells; CellTiter-Glo): > 200 µM
COc1ccc(-c2cn3c(n2)sc2cc(C(=O)NCCCN4CCCCCC4)ccc23)cc1 — cytotoxicity efficacy (Vero-E6; CellTiter-Glo ATP; concentration not given, 72 h, retest 8-point duplicates; relative to: DMSO 0%, hyamine -100%, more negative, more toxic): -32.3%
CN(CC[C@H](Oc1cccc2ccccc12)c1cccs1)N=O — relative survival (TK6; 7.5 µM, 4 h, added: hamster liver S9; relative to: vehicle): 28.4%

For quick reference, copied from above:
CC(C)C[C@@H](NC(=O)[C@H](N)CCCCN)C(=O)N1CCC[C@@H]1C(=O)N[C@H](Cc1ccccc1)C(=O)N[C@H](Cc1ccccc1)C(=O)N[C@H](C)C(N)=O — viability (NGF-differentiated PC-12 neurons; 5 µM, 24 h; relative to: untreated): 100%
CC(C)C[C@@H](N)C(=O)N[C@H](Cc1ccccc1)C(=O)N[C@H](Cc1ccccc1)C(=O)N[C@H](C)C(=O)N[C@H](CCC(=O)O)C(N)=O — viability (NGF-differentiated PC-12 neurons; 20 µM, 24 h; relative to: untreated): 75.6%
